Results pooled from the literature.
A part holds a random share of what one study measured. Positions count from the first letter of the parent shown.

Set 1
Target: Max dimerization protein 1, bHLH-zipper, MAX partner unstated (MXD1, Homo sapiens, UniProt Q05195, residues 56-136)
Technique: protein-binding microarray
Molecule type: double-stranded DNA, one strand shown
Sample: in vitro
Concentration: not given
Setting: k-mer, scored over probes, only values ≥0.25
Direction: higher = stronger binding
Target sequence (chain): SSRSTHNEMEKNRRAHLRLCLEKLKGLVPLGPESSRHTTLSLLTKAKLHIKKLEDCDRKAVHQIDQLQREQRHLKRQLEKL
| Sequence | E-score |
| --- | --- |
| ACGGGGCG | 0.336 |
| GGAGTGCA | 0.274 |
| ACGGCATG | 0.4 |
| AACGTGGC | 0.388 |
| ACGCTAAC | 0.259 |
| AAATCATG | 0.311 |
| CGTGTCCC | 0.365 |
| CGCCTCCC | 0.299 |
| ACCTCCCC | 0.276 |
| GCATGAGA | 0.279 |
| CATCGTGG | 0.306 |
| ACGCGAGG | 0.281 |
| ATGCCATG | 0.303 |
| ACGTGACA | 0.408 |
| AAGCCACG | 0.292 |
| CCACGAGG | 0.445 |
| GCGTGACC | 0.303 |

Set 2
Target: CCND3, cyclin fold, Cln2 fusion (human)
Technique: yeast growth competition, sequencing
Sample: yeast
Setting: weak parent motif
Relative to: not given
Direction: higher = stronger binding
Starting sequence: SLBP docking peptide (human); ARYKRKLLINDFG
| Substitution | normalised enrichment score |
| --- | --- |
| I9P | 0.253 |
| K6N | 0.232 |
| K4G | 0.138 |
| N10Y | 0.128 |
| K4D | 0.0818 |
| L8F | 0.153 |
| N10V | 0.101 |
| R2A | 0.144 |
| L7M | 0.178 |
| L7V | 0.107 |
| R5L | 0.224 |
| F12E | 0.154 |
| F12N | 0.0856 |
| L8Q | 0.121 |
| F12Y | 0.237 |

Set 3
Target: ABI1, truncated, D143A, DHFR fusion (Arabidopsis thaliana, UniProt P49597)
Technique: DHFR PCA, dose-response
Sample: yeast
Setting: Hill fit, not affinity, not high confidence
Together with: (+)-ABA, dose series
Direction: lower = more sensitive
Starting sequence: PYL1, truncated, DHFR fusion (Arabidopsis thaliana, UniProt Q8VZS8); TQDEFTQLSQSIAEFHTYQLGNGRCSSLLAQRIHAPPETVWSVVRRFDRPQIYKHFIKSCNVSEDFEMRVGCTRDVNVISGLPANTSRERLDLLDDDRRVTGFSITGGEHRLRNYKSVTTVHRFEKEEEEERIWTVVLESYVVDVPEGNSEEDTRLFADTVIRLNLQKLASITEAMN
| Substitution | ABA EC50 |
| --- | --- |
| L112G | 10 µM |
| H110Y | 0.116 µM |
| V143W | 7.79 µM |
| A84V | 246 µM |
| S140P | 0.014 µM |
| N149P | 749 µM |
| V44Y | 1390 µM |
| V121G | 101 µM |
| N177D | 2.79 µM |
| V136P | 0.0136 µM |
| S140N | 734 µM |
| L138P | 0.0667 µM |
| L169N | 0.638 µM |
| H122P | 755 µM |
| S80I | 25.5 µM |
| L169Y | 241 µM |
| G81W | 2.56 µM |

Set 4
Target: Interferon regulatory factor 3, full length, phosphomimetic (IRF3, Homo sapiens, UniProt Q14653, residues 1-427, S386D/S396D/S398D/S402D/T404D/S405D)
Technique: protein-binding microarray
Molecule type: double-stranded DNA, one strand shown
Sample: in vitro
Concentration: 2540 nM top
Setting: 60-bp whole probe
Together with: salmon DNA 0.4 mg/ml
Relative to: random background probes
Direction: higher = stronger binding
Shared flanks, not repeated: GCCTAGCAC … GTCTTGATTCGCTTGACGCTGCTG
Target sequence (chain): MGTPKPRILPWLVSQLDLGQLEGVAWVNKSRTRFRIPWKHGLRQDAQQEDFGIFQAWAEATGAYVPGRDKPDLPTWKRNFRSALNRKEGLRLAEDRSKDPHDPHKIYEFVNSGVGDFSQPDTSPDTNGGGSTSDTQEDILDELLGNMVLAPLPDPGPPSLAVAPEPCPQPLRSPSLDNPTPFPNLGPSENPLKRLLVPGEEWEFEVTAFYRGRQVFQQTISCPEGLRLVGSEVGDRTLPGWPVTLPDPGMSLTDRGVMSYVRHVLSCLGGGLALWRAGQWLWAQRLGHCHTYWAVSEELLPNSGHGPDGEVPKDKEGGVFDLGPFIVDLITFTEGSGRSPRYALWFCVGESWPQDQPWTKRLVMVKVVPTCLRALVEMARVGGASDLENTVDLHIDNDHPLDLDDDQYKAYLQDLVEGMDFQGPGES
| Sequence | fitted relative affinity |
| --- | --- |
| GACGGTTTCGGTTTCGTGACGTGCTAG | 10.8 z-score |
| GACGGACTGCTTAGCCTGACGTGCTAG | -0.514 z-score |
| TTAGGTTCCCTACTGCTTTAGTGCTAG | 3.44 z-score |
| TCACTCACCTAGTTTCATACTGTGCTA | 1.41 z-score |
| CTTCCCCTCTCATTCCAATTGTGCTAG | 2.22 z-score |
| CCACATATGCTTTTTAGAAAGTGCTAG | 0.93 z-score |
| GACGGTATCCGTCTCCTGACGTGCTAG | 4.33 z-score |
| GACGGTATCGACTATCAGGACGTGCTA | 0.877 z-score |
| TTAGGTTTCCTTCACCTTTAGTGCTAG | 3.83 z-score |
| TTTTCATTTTCTTTAACTCAGTGCTAG | 5 z-score |
| GACGATCTCAGTCTCGAGATGTGCTAG | 0.74 z-score |
| GAGGGTTTCGGTCTCGGGACGTGCTAG | 6.49 z-score |
| TTAAGTATCGGGACTGGGTTAGTGCTA | 1.37 z-score |
| GACGTACTGGGGTTTCGAGACGTGCTA | 0.118 z-score |
| TACGGTTTCGACTATCGGGACGTGCTA | 2.67 z-score |
| TAAGGTATCGGTATCGGTTAGTGCTAG | 5.32 z-score |
| TTAGATAGCGGGACTGGATTAGTGCTA | -0.731 z-score |
| AGCCGTCTCCACCTGGGCAAGTGCTAG | 0.0662 z-score |
| GACGAACTGAGACTGGAGACGTGCTAG | -0.199 z-score |
| GACGATCTCACTCTCGAGACGTGCTAG | 1.01 z-score |

Set 5
Target: CEBPA, bZIP domain (human)
Technique: DHFR protein complementation
Sample: yeast
Setting: single substitutions, most at no-binding floor
Relative to: wild-type JUN-FOS pair
Direction: higher = stronger binding
Starting sequence: JUN, bZIP domain (human); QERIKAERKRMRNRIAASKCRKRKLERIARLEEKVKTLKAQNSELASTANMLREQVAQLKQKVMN; partner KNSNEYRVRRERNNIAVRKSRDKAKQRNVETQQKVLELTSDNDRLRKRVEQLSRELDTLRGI
| Substitution | binding fitness |
| --- | --- |
| L45W | -1.48 natural log |
| I28P | -1.46 natural log |
| V56G | -1.5 natural log |
| N42P | -1.5 natural log |
| A46V | -1.37 natural log |
| K39Q | -1.4 natural log |
| E33W | -1.38 natural log |
| E33R | -1.43 natural log |
| E54P | -1.51 natural log |
| A29L | -1.41 natural log |
| E44H | -1.5 natural log |
| I28L | -1.42 natural log |
| M51E | -1.5 natural log |
| A40W | -1.49 natural log |
| L38E | -1.54 natural log |

Set 6
Target: RNA binding protein fox-1 homolog 2, RRM domain, GST-SBP tag (RBFOX2, Homo sapiens, UniProt O43251-10, residues 100-194)
Technique: RNA Bind-n-Seq
Molecule type: RNA
Sample: in vitro
Concentration: 365 nM
Setting: natural RNA segment, single round, ends assumed
Relative to: no-protein control
Direction: higher = stronger binding
Target sequence (chain): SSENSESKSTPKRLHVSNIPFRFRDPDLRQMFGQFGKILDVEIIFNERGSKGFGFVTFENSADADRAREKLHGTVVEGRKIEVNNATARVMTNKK
| Sequence | RBNS enrichment (R) |
| --- | --- |
| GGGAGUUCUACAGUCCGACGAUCUUUGGCAAAACGCUACUUAAUCCAAUGGGUUCUGUACAGUAGAUUUUGCAGAUGUAAUAAACUUUAAUAUAAAGGAGUCCUAUGAACUCUACUGCUUCUGCUUCUUCUUCUGGAAUUCUCGGGUGCCAA | 0.339 |
| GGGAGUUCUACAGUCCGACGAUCAACCAGCUUUUUAAAAAUAUGUAGCGCUUGUCAUGAGAGGUACUGGGGAAAAGAAUGUGCAGUAGAGUGCAAAUACAUUACAAUUACUGGAAAAUUGGUGGAAAAUGCUUUGGAAUUCUCGGGUGCCAA | 4.44 |
| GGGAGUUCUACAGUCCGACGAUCGUUUUUUAAAGAGAAACAGAACCAGACUCCUUUCCCGGCCCUCCAAACAUGUAUUCUGUGCGAUAACUUGUGCCUGCGACAAGUGUUAAUCUUGGGAUCGUAUUUUUAUAUGGAAUUCUCGGGUGCCAA | 1.19 |
| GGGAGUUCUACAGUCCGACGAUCCCAGACACAUGCUGACAGACACGAGGGAAGCAAGACAGAUUCUUUCUCCACUGUUAAACUCUGGGGAGUGGUAUCAGCUUUUGAAACCCUGCUCUAGACUCUUACAAAAUUGGAAUUCUCGGGUGCCAA | 0.25 |
| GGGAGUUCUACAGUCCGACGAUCGGAGCUUUAAUCAGUAAAUGUCUCCACUUCCUAUAUUACAUUAACGUUGGCUCAUGCAUAUAACCACCUGCUGCUGAUGUACUUCUCCAUCUUAAAAAGAUUUAGAGUGGUGGAAUUCUCGGGUGCCAA | 0.478 |
| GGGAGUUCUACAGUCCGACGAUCGUGGAGAGAAGGCAACCCCAGAUCCCCUGAGCUAACCCGGAGGAAAGGCAGUCCUGGACAGAAGACUGUCAGCAGAAGGAAAGUACUGGACUACCCGUGGGUAAGUCCUGUGGAAUUCUCGGGUGCCAA | 0.365 |
| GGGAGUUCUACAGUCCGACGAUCGAUUAUAGAUUUAAAAGUAUAUGACAUGUAUUUUGUAUUUAAAACUAGAAUAGCCAGUAUUUAUGUUUUUUAUAAAACUGUGCAAUACAAAUUAUGCAAUCACCAUAACUUGGAAUUCUCGGGUGCCAA | 0.854 |
| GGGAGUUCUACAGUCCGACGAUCACAAAACCACAGUGUACCAUUAAAAUAUGCACUAAGUCUCUUUUUUACAAAGGCUGUAUUCAGCAAGGCGCUAACUUGCUUAAAUGUGAAUUACUAACUUCUAAAACUGUUGGAAUUCUCGGGUGCCAA | 0.338 |
| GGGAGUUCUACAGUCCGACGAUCUUGUUGUCUUGUUGUAUAAGAAAUCUAGGUAGGUGCUUUCAACUAGAGUGUUGACCUUGUUAAGACGGACGUAGCUGCACGGUAUUCUCAAUACUGAGAUUGCAAAACUGUGGAAUUCUCGGGUGCCAA | 1.23 |
| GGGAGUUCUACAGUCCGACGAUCGCCAGGACGCAAGGGGAGCAAUGAAUGUCUGUGUCUGAUAUGCUCCUCCCAGGUUGGUGUCCCACUGGACAGGUCACAAUGCAGGCUGCCUGCUUUGCCUCCUCCUGUGUUGGAAUUCUCGGGUGCCAA | 2.61 |
| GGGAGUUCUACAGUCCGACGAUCAAGCACAGAAUAUUUUUAUAUUUCCUUUAUGUGAAUUUUUAAGCUGCAAAUCUGAUGGCCUUAAUUUCCUUUUUGACACUGAAAGUUUUGUAAAAGAAAUCAUGUCCAUAUGGAAUUCUCGGGUGCCAA | 0.504 |
| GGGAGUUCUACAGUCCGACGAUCUCAUGUGUGUUACUAUUAGGUAUAUAUAGGCUAGAUUGUGCCCACUAUCCUGGAAGGUGGCAAGUUUAGAGACGAUAGCACAAUUUUCAUGAACAUAGCACUGGGGCAUGUGGAAUUCUCGGGUGCCAA | 1.13 |
